Measurements pooled from the literature.
Each numbered part is a random draw from the data of one study; scales do not carry over between parts.
UniProt Q13237, sequence (whole entry, looked up): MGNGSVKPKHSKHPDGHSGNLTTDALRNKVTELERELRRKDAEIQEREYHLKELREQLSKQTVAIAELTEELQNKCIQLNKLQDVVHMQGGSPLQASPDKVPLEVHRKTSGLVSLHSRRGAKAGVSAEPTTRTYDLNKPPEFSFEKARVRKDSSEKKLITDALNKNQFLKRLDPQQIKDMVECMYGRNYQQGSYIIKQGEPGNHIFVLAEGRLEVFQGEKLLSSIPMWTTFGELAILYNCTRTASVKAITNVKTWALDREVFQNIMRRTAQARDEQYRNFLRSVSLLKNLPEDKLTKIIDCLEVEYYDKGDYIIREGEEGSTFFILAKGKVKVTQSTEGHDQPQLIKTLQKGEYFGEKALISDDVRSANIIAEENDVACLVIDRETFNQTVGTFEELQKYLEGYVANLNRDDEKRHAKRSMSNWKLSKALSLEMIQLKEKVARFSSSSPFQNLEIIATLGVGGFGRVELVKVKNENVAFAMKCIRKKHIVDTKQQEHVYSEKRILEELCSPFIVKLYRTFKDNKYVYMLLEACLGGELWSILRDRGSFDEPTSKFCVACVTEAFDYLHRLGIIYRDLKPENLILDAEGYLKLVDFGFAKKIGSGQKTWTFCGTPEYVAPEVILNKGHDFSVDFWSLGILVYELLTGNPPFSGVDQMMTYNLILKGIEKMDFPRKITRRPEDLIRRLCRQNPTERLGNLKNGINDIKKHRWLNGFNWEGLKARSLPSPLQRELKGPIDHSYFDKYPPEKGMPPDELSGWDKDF
UniProt P07333, sequence (whole entry, looked up): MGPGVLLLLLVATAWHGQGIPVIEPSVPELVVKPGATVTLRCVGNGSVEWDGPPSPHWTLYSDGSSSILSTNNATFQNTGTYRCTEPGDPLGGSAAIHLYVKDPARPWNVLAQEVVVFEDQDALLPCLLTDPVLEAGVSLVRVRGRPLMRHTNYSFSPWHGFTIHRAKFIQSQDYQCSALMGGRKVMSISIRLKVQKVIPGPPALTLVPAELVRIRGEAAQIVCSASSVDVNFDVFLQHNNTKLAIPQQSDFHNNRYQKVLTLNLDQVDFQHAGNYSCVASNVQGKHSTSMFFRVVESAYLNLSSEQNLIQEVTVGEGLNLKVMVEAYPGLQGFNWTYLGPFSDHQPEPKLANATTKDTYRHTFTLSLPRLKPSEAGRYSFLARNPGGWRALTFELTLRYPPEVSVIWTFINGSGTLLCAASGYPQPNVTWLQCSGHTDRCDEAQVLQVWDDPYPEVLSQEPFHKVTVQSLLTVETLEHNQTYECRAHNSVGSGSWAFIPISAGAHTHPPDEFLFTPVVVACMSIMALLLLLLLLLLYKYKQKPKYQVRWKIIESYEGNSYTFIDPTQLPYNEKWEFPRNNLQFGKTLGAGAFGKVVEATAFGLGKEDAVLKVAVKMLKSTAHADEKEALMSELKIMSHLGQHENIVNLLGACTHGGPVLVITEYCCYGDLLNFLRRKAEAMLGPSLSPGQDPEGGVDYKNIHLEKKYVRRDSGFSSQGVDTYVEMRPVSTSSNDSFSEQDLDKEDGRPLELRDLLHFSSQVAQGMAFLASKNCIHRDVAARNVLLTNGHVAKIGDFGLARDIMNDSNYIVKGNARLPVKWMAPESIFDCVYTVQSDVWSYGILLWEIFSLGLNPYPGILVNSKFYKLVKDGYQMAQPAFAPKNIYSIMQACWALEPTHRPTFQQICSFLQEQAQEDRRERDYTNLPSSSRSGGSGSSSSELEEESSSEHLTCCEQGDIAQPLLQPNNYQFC
UniProt Q9UQ88, sequence (whole entry, looked up): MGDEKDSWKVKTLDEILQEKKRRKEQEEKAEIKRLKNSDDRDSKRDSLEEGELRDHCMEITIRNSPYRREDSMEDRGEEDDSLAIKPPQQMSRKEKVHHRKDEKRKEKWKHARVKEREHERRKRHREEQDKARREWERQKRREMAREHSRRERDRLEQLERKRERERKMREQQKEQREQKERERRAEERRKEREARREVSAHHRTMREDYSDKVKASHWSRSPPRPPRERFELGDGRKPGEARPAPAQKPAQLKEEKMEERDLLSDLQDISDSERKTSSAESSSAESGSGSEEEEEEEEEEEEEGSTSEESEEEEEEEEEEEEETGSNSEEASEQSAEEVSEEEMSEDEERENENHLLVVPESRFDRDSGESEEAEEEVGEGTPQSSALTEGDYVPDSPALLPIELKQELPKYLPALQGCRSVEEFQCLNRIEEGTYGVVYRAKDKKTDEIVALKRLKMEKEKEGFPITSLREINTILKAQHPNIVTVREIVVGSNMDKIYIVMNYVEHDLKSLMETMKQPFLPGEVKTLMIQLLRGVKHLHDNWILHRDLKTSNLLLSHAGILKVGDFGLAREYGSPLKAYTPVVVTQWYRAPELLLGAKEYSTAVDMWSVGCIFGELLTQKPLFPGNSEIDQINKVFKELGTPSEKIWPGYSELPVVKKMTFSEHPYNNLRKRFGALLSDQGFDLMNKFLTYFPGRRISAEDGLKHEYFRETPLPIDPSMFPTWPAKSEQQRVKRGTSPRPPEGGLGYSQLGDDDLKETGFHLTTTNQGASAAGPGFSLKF
UniProt P49137, sequence (whole entry, looked up): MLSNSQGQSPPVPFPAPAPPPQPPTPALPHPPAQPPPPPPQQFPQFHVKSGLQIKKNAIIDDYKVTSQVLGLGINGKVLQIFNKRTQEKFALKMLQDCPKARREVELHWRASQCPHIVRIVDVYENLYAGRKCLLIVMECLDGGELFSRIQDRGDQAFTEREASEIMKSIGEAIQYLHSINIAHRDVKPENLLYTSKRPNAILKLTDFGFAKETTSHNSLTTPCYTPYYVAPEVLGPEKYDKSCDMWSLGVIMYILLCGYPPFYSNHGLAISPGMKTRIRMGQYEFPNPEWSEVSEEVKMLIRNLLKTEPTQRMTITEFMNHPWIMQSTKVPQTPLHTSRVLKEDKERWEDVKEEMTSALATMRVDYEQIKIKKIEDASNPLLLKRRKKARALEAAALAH
UniProt P57078, sequence (whole entry, looked up): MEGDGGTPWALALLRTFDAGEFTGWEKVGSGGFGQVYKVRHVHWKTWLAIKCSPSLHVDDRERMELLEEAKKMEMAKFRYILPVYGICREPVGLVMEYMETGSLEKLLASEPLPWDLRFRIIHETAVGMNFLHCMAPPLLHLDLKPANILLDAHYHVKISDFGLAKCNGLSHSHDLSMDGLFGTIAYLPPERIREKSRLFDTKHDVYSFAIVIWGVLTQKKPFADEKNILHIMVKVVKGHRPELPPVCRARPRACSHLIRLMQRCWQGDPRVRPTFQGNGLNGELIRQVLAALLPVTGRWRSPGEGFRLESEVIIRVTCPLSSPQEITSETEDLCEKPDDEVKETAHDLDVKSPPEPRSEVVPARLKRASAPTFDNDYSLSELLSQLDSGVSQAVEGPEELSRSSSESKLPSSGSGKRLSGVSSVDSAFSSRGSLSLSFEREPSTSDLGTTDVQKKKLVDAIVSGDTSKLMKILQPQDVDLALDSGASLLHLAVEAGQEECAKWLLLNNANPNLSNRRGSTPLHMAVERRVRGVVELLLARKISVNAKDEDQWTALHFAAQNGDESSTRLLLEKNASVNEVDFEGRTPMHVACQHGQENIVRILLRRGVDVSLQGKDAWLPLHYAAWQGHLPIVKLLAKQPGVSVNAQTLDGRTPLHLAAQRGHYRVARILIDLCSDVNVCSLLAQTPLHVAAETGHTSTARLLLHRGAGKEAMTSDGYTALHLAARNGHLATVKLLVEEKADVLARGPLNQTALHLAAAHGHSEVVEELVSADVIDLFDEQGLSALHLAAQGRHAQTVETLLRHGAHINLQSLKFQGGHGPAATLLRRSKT
UniProt P52564, sequence (whole entry, looked up): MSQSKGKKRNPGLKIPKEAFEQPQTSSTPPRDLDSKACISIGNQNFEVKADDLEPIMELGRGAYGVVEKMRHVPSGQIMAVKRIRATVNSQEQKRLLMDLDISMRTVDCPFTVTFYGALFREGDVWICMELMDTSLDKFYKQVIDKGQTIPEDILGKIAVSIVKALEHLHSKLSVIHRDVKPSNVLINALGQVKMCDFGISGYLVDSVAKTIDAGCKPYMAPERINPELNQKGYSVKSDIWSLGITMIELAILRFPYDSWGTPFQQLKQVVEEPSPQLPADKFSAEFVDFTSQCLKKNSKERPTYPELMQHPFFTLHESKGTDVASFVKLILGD

Series 1
Cell line: mouse MPNST tumor cells
Technique: high-content nuclear imaging
Refers to: cell number
Concentration: 10 µM
Time: 12 h
Notes: mean of 2 replicates
Baseline: plate mean
Direction: higher = more cells
SMILES | nuclei count [z-score]
Cc1ncc(Cl)cc1NCc1ccc(C(=O)N[C@@H](CC2CCCC2)C(=O)NC2CC2)s1 | 0.199
CN(Cc1ccc(C(C)(C)C)cc1)Cc1cccc2ccccc12 | 1.14
CC(C)(O)c1ccn2c(-c3ccc(F)c(-c4ccc(F)cc4C#N)c3)cnc2c1F | 1.38
CCC(C)N(C)C(=O)c1cc2ccccc2c(-c2ccccc2Cl)n1 (centres unmarked) | 1.1
O=C1C(=Cc2cccnc2)C(=O)c2ccccc21 | 0.497
CCC(CC)Nc1cc(C)nc(Oc2c(C)cc(C)cc2C)c1C | 1.35
CCCc1cc(-c2nc(-c3ccc(C)cc3)cs2)ccn1 | -0.654
CCCCCCCCCCC(C)(C)C(=O)Nc1c(OC)cc(OC)cc1OC | 2.24

Series 2
Target: Death-associated protein kinase 3 (DAPK3, Homo sapiens, UniProt O43293)
UniProt O43293, sequence (whole entry, looked up): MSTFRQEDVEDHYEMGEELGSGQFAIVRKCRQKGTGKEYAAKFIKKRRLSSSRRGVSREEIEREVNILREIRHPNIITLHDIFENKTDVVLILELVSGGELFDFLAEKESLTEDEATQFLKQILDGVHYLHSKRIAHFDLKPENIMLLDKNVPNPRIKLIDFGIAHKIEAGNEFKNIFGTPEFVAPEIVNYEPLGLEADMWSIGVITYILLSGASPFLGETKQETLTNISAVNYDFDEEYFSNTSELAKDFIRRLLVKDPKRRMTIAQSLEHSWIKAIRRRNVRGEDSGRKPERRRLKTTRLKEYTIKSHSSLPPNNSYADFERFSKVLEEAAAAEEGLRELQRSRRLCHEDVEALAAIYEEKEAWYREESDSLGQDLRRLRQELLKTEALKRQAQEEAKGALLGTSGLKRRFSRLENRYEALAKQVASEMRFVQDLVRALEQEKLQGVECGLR
Effect on: enzyme activity
Mode: inhibitor
Concentration: 0.5 µM
Baseline: control
SMILES | remaining activity
CCCCc1c(-c2ccc(OC)cc2)[nH]c2nccnc12 | 102%
N#Cc1cnc2cnc(NCc3cccnc3)cc2c1Nc1ccc(F)c(Cl)c1 | 101%
Cc1cc(Nc2cc(N3CCN(C)CC3)nc(Sc3ccc(NC(=O)C4CC4)cc3)n2)[nH]n1 | 109%
COc1ccc(COc2ccc(Cc3cnc(N)nc3N)cc2OC)cc1 | 104%
O=C1Nc2ccc(Br)cc2/C1=C/c1cc2c([nH]1)CCCC2 | 92.8%
O=c1cc(N2CCOCC2)oc2c(-c3ccccc3)cccc12 | 96.5%
CN1CCN(c2ccc3nc(-c4c(N)c5c(F)cccc5[nH]c4=O)[nH]c3c2)CC1 | 109%
O=Nc1c(-c2c(O)[nH]c3cc(Br)ccc23)[nH]c2ccccc12 | 84.9%
CN(C)S(=O)(=O)c1ccc2c(c1)/C(=C/c1cc3c([nH]1)CCCC3)C(=O)N2 | 94.4%

Series 3
Compound: Cc1nccc(COC(=O)N2C[C@@H]3[C@@H](CNC(=O)c4ccc5[nH]nnc5c4)[C@@H]3C2)n1
Technique: competition with immobilised ligand
Concentration: 1 µM
target | test | remaining binding [%]
Macrophage colony-stimulating factor 1 receptor, autoinhibited (CSF1R, Homo sapiens, UniProt P07333) | cell-free assay | 100
RIPK4 (Homo sapiens, UniProt P57078) | cell-free assay | 98
PIK3C3 (Homo sapiens, UniProt Q8NEB9) | cell-free assay | 94
FLT3 (Homo sapiens, UniProt P36888, K663Q) | cell-free assay | 100
Myosin-IIIb (MYO3B, Homo sapiens, UniProt Q8WXR4) | binding | 100
FLT3 (Homo sapiens, UniProt P36888, D835Y) | cell-free assay | 100
MAPKAPK2 (Homo sapiens, UniProt P49137) | cell-free assay | 72
PRKG2 (Homo sapiens, UniProt Q13237) | cell-free assay | 100
MAP2K6 (Homo sapiens, UniProt P52564) | cell-free assay | 100
CDK11A (Homo sapiens, UniProt Q9UQ88) | binding | 100

Further values, each from its own experiment
Target: Beta-1 adrenergic receptor (ADRB1, Homo sapiens, UniProt P08588)
UniProt P08588, sequence (whole entry, looked up): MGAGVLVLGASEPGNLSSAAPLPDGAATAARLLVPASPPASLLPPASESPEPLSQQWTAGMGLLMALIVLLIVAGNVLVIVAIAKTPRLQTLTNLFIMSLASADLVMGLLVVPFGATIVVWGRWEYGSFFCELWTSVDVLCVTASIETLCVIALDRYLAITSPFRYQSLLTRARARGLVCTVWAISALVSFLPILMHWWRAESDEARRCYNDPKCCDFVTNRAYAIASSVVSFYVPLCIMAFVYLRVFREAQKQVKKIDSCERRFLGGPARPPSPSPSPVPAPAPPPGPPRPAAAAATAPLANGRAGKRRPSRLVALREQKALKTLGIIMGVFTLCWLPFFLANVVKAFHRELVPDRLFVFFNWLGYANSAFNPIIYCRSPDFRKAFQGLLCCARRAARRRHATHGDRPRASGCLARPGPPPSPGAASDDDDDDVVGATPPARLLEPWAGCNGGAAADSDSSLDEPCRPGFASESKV
SMILES | IC50
c1nc2nc(Nc3ccc(N4CCOCC4)cc3)nc(NC3CCCCC3)c2[nH]1 | ≥ 100 µM
Cc1c(-c2c(-c3ccc(F)o3)sc3ncnc(O[C@@H](Cc4ccccc4OCc4ccnn4CC(F)(F)F)C(=O)O)c23)ccc(OCCN2CCN(C)CC2)c1Cl | ≥ 100 µM

Excerpt of the above (series 1):
SMILES | nuclei count [z-score]
CCC(C)N(C)C(=O)c1cc2ccccc2c(-c2ccccc2Cl)n1 (centres unmarked) | 1.1
O=C1C(=Cc2cccnc2)C(=O)c2ccccc21 | 0.497
